Experimental data pooled from the literature.
Numbered parts are unrelated; each lists some results of a single study. “And” joins repeats or separate records; there may be more than shown.

Block 1 — concentration: 1 µM
Compound: O=C(NCc1ccccc1)c1ccc(S(=O)(=O)NCc2ccccc2)cc1
cell line | system | conditions | how to read | viability
sample I colorectal tumour organoid | – | replicate 1 | relative to: DMSO | 82.8%
sample C colorectal tumour organoid | – | replicate 2 | relative to: DMSO | 101%
sample BA colorectal tumour organoid | – | – | relative to: DMSO | 72.4%
sample B colorectal tumour organoid | – | replicate 1 | relative to: DMSO | 106%
sample I colorectal tumour organoid | – | replicate 2 | relative to: DMSO | 102%
colorectal tumour organoids | – | – | relative to: DMSO | 91.3%
sample D normal epithelium organoids | human patient-derived organoids | – | relative to: DMSO control | 83.1% and 105%
sample B colorectal tumour organoid | – | replicate 2 | relative to: DMSO | 86%
sample C colorectal tumour organoid | – | replicate 1 | relative to: DMSO | 89.5%

Block 2 — cell line: mouse MPNST tumor cells; technique: high-content immunofluorescence imaging; refers to: nuclear SOX9; concentration: 10 µM; time: 12 h; setting: mean of 2 replicates; relative to: DMSO control; direction: higher = more nuclear SOX9
Structure (SMILES) | nuclear SOX9 intensity
N#Cc1ccc(NC(=O)Nc2ccccc2Br)c2n[nH]nc12 | 105 % of DMSO
O=c1oc2ccccc2c(O)c1Cc1c(O)c2ccccc2oc1=O | 105 % of DMSO
CCOC(=O)[C@H](CCc1ccccc1)N[C@@H](C)C(=O)N1[C@H](C(=O)O)C[C@@H]2CCC[C@@H]21 | 102 % of DMSO and 100 % of DMSO
CCCc1ncc(C[n+]2ccccc2C)c(N)n1 | 105 % of DMSO
Oc1c(Cl)cc(Cl)c2cccnc12 | 112 % of DMSO
CC1=C(C(=O)OCCN(Cc2ccccc2)c2ccccc2)C(c2cccc([N+](=O)[O-])c2)C(P2(=O)OCC(C)(C)CO2)=C(C)N1 (stereo not shown) | 136 % of DMSO
CC(=O)OC(C)C[N+](C)(C)C (stereo not shown) | 104 % of DMSO
NC(=O)c1cnccn1 | 103 % of DMSO and 94.8 % of DMSO
CCCn1c(=O)c(C)cn2nc(N)nc12 | 102 % of DMSO
CNc1oc(-c2cccc3ccccc23)nc1C#N | 107 % of DMSO
Cc1[nH]cnc1CN1CCc2c(c3ccccc3n2C)C1=O | 88.9 % of DMSO

Block 3 — technique: Incucyte 3D growth; concentration: 30 µM; direction: higher = more growth
Structure (SMILES): CC(C)(C(=O)O)[C@H](NC(=O)Cc1cccc(I)c1)c1ccc2oc(=O)[nH]c2c1
cell line | conditions | spheroid area
A375 | 48.52 h | 2.29e+07 a.u. and 2.49e+07 a.u. and 2.65e+07 a.u. and 2.76e+07 a.u. and 2.45e+07 a.u.
A375 | 84 h | 4.47e+07 a.u. and 5.13e+07 a.u. and 6.96e+07 a.u. and 5.62e+07 a.u. and 5.59e+07 a.u. and 6.25e+07 a.u.
MEL-JUSO | 60.52 h | 7.72e+06 a.u. and 1.16e+07 a.u. and 1.11e+07 a.u. and 1.28e+07 a.u. and 1.25e+07 a.u. and 1.33e+07 a.u.
KP-4 | 234 h | 4.64e+07 a.u. and 4.74e+07 a.u. and 4.71e+07 a.u. and 7.05e+07 a.u. and 4.3e+07 a.u. and 2.24e+07 a.u.
A375 | 462.52 h | 1.54e+08 a.u. and 1.79e+08 a.u. and 1.42e+08 a.u. and 1.62e+08 a.u.
NCI-H358 | 42 h | 3.73e+06 a.u. and 2.92e+06 a.u. and 4.2e+06 a.u. and 3.89e+06 a.u. and 3.53e+06 a.u. and 4.24e+06 a.u.

Block 4 — organism: Sarcocystis neurona; effect on: parasite growth; concentration: 10 µM; time: 96 h; setting: second screen; relative to: untreated
SMILES | log2 fold change
O=C(NCCN1CCOCC1)c1ccc(Cl)cc1 | 0.46
CC(=O)NS(=O)(=O)c1ccc(N)cc1 | 0.11
CCCC1O[C@@H]2C[C@H]3[C@@H]4CCC5=CC(=O)C=C[C@]5(C)[C@H]4[C@@H](O)C[C@]3(C)[C@]2(C(=O)CO)O1 (stereo partly shown) | 0.17
CC(=O)Nc1nnc(S(N)(=O)=O)s1 | 0.2
N[C@@H](Cc1cc(I)c(Oc2cc(I)c(O)c(I)c2)c(I)c1)C(=O)O | 0.6
Clc1ccc(COC(Cn2ccnc2)c2ccc(Cl)cc2Cl)c(Cl)c1 (stereo not shown) | -1.15
Cc1c(O)cccc1C(=O)N[C@@H](CSc1ccccc1)[C@H](O)CN1C[C@H]2CCCC[C@H]2C[C@H]1C(=O)NC(C)(C)C | -1.09
CNC(=C[N+](=O)[O-])NCCSCc1ccc(CN(C)C)o1 | 0.17
